Measurements from different studies.
Protocols differ between the studies behind these lines. Numbers after ± are the reported error.
TDP1: Tyrosyl-DNA phosphodiesterase 1 (TDP1, Homo sapiens, UniProt Q9NUW8)
Sequence of UniProt Q9NUW8 (whole entry, looked up): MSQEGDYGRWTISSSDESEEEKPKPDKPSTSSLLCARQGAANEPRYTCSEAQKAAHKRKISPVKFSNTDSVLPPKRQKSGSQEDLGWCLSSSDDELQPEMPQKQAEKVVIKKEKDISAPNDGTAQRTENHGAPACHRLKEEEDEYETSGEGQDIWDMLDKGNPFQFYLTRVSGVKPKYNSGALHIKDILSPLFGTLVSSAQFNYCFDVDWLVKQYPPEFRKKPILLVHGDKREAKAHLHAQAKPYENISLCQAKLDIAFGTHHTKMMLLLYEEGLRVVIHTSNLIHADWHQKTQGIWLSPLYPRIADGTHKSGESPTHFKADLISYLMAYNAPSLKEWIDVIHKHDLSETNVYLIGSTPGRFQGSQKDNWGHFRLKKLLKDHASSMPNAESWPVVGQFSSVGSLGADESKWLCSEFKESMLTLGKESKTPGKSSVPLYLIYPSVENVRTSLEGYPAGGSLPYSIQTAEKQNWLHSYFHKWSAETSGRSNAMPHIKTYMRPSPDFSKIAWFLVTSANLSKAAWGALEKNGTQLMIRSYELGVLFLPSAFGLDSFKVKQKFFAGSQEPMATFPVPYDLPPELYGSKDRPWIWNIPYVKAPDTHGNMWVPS

| SMILES | target or system | test | setting | endpoint | result |
| --- | --- | --- | --- | --- | --- |
| CNS(=O)(=O)Nc1nccc(Cc2c(C)c3ccc(Oc4ncccc4F)cc3oc2=O)c1F | NCI-H520 | cell viability | 7 days | IC50 | 0.43 µM |
| CN(C)C(=O)c1ccnc(N2Cc3cn(Cc4ccccc4F)nc3C2)n1 | HEK293 expressing GluA1 and GluA2 | glutamate excitotoxic cell death, CellTox Green | together with: glutamate | IC50 | 0.733 µM |
| CC(=O)NCCOCCOCCNC(=O)c1cc(C(=O)N2CCNCCNCCNCC2)c(O)c(C(=O)N2CCNCCNCCNCC2)c1 | 2C6 normal pancreas | cell viability, MTT | 24 h | IC50 | > 1000 µM |
| O=C1CS/C(=N\N=C\c2cccc3cc4ccccc4nc23)N1c1ccc(F)cc1 | SK-BR-3 | cell growth or viability, MTT | 48 h | IC50 | > 50 µM |
| CN(C)C(=O)c1ccnc(N2Cc3cn(Cc4ccc(F)cc4Cl)nc3C2)n1 | HEK293 expressing GluA1 and GluA2 | glutamate excitotoxic cell death, CellTox Green | together with: glutamate | IC50 | 0.007 µM |
| Cn1ncc(-c2ccc3c(=O)[nH]nc(CN)c3c2)c1-c1c(F)c(Cl)cc(OC2CC2)c1C#N | EFM-19 | cell viability, inhibitor, CellTiter-Glo | 120 h, baseline-subtracted | IC50 | 0.29 µM |
| CC(=O)NCCOCCNC(=O)c1cc(C(=O)N2CCNCCNCCNCC2)c(O)c(C(=O)N2CCNCCNCCNCC2)c1 | 2C6 normal pancreas | cell viability, MTT | 24 h | IC50 | > 1000 µM |
| CC(C)c1ccc(N(C)c2ccc3c(c2)OCC[C@H]3CNc2cnccc2C(=O)O)cc1 | KMS-11 | cell growth or viability, ATP luminescence | 7 days | IC50 | 0.0122 µM |
| C=CC(=O)N1CCCC(n2c(=O)c3ncccc3n(Cc3ccc(Oc4ccccc4)cc3)c2=O)C1 (stereo not shown) | SU-DHL-5 | cell growth or viability, MTT | 72 h | IC50 | 5 µM |
| C=CC(=O)N1C[C@H](C)N(c2nc(OC[C@@]34CCCN3C[C@H](F)C4)nc3c(F)c(-c4ccc(F)c5sc(N)c(C#N)c45)c(C(F)(F)F)cc23)C[C@H]1C | Ba/F3 expressing KRAS G12D | cell viability | 72 h | IC50 | 0.083 µM |
| CN(C(=O)c1cncc(N2Cc3cnn(Cc4ccc(F)cc4)c3C2)n1)C1CCCC1 | HEK293 expressing GluA1 and GluA2 | glutamate excitotoxic cell death, CellTox Green | together with: glutamate | IC50 | 0.054 µM |
| O=C(O)c1ccc(Nc2c(-c3ccccc3)nc3ccc(CON=CC4C(=O)Oc5ccc(Cl)cc5C4=O)cn23)cc1 (stereo not shown) | TDP1 | enzyme activity, inhibitor | 100 µM, unpurified compound | inhibition | 18.4% |
| CCN(C(=O)c1cc(F)ccc1Oc1nncnc1N1CCC2(C1)CN(C(CCCN(C)CCOC)C(C)C)C2)C(C)C (stereo not shown) | MOLM-14 (KMT2A-AF9, FLT3-ITD) | mRNA level, QuantiGene multiplex, measured: PBX3 | concentration not given | IC50 | > 3 µM |
| CC(CCC(=O)OCc1cccc(CN(C(=O)OCc2ccc(B3OC(C)(C)C(C)(C)O3)cc2)[c-]2cccc2)c1)C1CCC2C3CCC4CC(O)CCC4(C)C3CCC12C.[Fe+2].c1cc[cH-]c1 (stereo not shown) | BL2 | cell growth or viability, MTT | 48 h | IC50 | 31 µM |
| CCOC(=O)N1CCN(c2ccccc2C=NOCc2ccc3nc(-c4ccccc4)c(Nc4ccc(C(=O)O)cc4)n3c2)CC1 | TDP1 | enzyme activity, inhibitor | 100 µM, unpurified compound | inhibition | 49% |
| CN(C(=O)c1ccnc(N2Cc3cn(Cc4ccc(F)cc4)nc3C2)n1)C1CCCC1 | HEK293 expressing GluA1 and GluA2 | glutamate excitotoxic cell death, CellTox Green | together with: glutamate | IC50 | 0.054 µM |
| CCn1nccc1C1CCCN1S(=O)(=O)c1cc(C)c(C)cc1C (stereo not shown) | human PBMC monocytes | phagocytosis of anti-D RBCs | – | IC50 | 25.5 ± 6.7 µM |
| COc1cc(-c2cc(C(C)=O)n3ccccc23)cc(OC)c1C(=O)N(C)C | MV4-11 | cell growth or viability, ATP luminescence | – | IC50 | 2.01 µM |
| CCOC(=O)/C=C1\S/C(=N\N=C\c2cccc3cc4ccccc4nc23)N(c2ccccc2)C1=O | SK-BR-3 | cell growth or viability, MTT | 48 h | IC50 | > 50 µM |
| COc1cc(-c2cn(C)c(=O)c3cnccc23)c(OC)cc1CN(C)C | MV4-11 | cell growth or viability, ATP luminescence | – | IC50 | 17.8 µM |

| SMILES | target or system | test | setting | endpoint | result |
| --- | --- | --- | --- | --- | --- |
| CCn1c(-c2ccccc2)cs/c1=N/N=C(\C)c1c(O)c2ccccc2oc1=O | human Skin fibroblast | cell growth or viability, MTT | 48 h | IC50 | > 100 µM |
| CN(C)C(=O)c1cccc(N2Cc3cn(Cc4ccc(F)c(F)c4)nc3C2)c1 | HEK293 expressing GluA1 and GluA2 | glutamate excitotoxic cell death, CellTox Green | together with: glutamate | IC50 | 0.005 µM |
| CCOC(=O)/C=C1\S/C(=N\N=C\c2cccc3cc4ccccc4nc23)N(C)C1=O | SK-BR-3 | cell growth or viability, MTT | 48 h | IC50 | > 50 µM |
| Nc1nc2cnc(C(=O)N3CCOC[C@@H]3c3ccc(C(F)(F)F)cc3)cc2c2c1COC2 | DOHH-2 | cell growth | – | IC50 | 0.051 µM |
| NCCCn1cc(COc2cc(C(=O)Nc3cc(OCCN)c4ccccc4n3)nc(C(=O)Nc3cc(OCCN)c4ccccc4n3)c2)nn1 | HT-1080 | cell growth or viability, ATP luminescence | 72 h | IC50 | > 40 µM |
| Cc1ccc(C(C)C)cc1.Cc1ccc(C(C)C)cc1.Cc1ccc(C(C)C)cc1.Cc1ccc(C(C)C)cc1.O=S(=O)(O)C(F)(F)F.O=S(=O)(O)C(F)(F)F.O=S(=O)(O)C(F)(F)F.O=S(=O)(O)C(F)(F)F.c1ccc2c3c4ccccc4c(c2c1)-c1cn(nn1)-c1cc[n+](cc1)[Ru-]1[O]c2c4ccccc4c4c5c(c6ccccc6c(c25)=[O+]1)=[O+][Ru-]([O]4)[n+]1ccc(cc1)-n1cc(nn1)-c1c2ccccc2c(c2ccccc12)-c1cn(nn1)-c1cc[n+](cc1)[Ru-]1[O]c2c4ccccc4c4c5c(c6ccccc6c(c25)=[O+]1)=[O+][Ru-]([O]4)[n+]1ccc(cc1)-n1cc-3nn1 | AGS | cell growth, MTT | 24 h, after 24 h preincubation in medium at 37 °C | IC50 | 7.6 ± 0.55 µM |
| CN1CCC(N[C@H]2CCc3[nH]c4c(C(N)=O)ccc(-c5ccccc5Cl)c4c3C2)CC1 | DOHH-2 | cell growth or viability | – | IC50 | 1.51 µM |
| CO[C@@H](C[C@H]1C(C)=CC[C@@H]2[C@]3(C)C[C@H](O[C@@H]4O[C@@H](C)[C@H](O)[C@@H](O)[C@H]4O)[C@@H](O)C(C)(C)[C@H]3CC[C@]21C)[C@H](N)C(=O)O | THP-29 | cell viability, CCK-8 | 72 h | IC50 | > 10 µM |
| Cc1ccc([N+](=O)[O-])cc1S(=O)(=O)N(C)/N=C/c1cnc2ccc(Br)cn12 | HCC 2998 | cell viability, MTS | – | IC50 | > 10 µM |
| CCOc1cncc(-c2ccc(NC(=O)C3(c4ccnc(NS(=O)(=O)C5CC5)n4)CCOCC3)nc2)n1 | SD-1 | cell proliferation, CellTiter-Glo | 72 h, lymphoid haematological cancer | IC50 | 0.061 µM |
| COc1cc(-c2cc(C(C)=O)n3ccccc23)cc(OC)c1CN1CC(O)C1 | MV4-11 | cell growth or viability, ATP luminescence | – | IC50 | 1.95 µM |
| O=c1cc(-c2ccc(O)c(O)c2)oc2cc(O)cc([O][Ga+][O]c3cc(O)cc4oc(-c5ccc(O)c(O)c5)cc(=O)c34)c12 | LO2 | cell viability, MTT | – | IC50 | > 200 µM |
| CC(C)=CC1OC(C)(C)C2C=C3C(=O)C(Cl)=CC(O)C3C3C(O)C4OC4C(=O)C132 (stereo not shown) | KYSE-450 | cell growth or viability, MTS | – | IC50 | 3.78 µM |
| CC(=O)OC[C@H]1O[C@@H](Oc2ccc(C#[C][Pt+])cc2)[C@H](OC(C)=O)[C@@H](OC(C)=O)[C@@H]1OC(C)=O.O=S(=O)([O-])C(F)(F)F.c1ccc(-c2cccc(-c3ccccn3)n2)nc1 | CCD 19Lu | cell growth or viability | 24 h | IC50 | > 100 µM |
| CCN(CC)C(=O)c1cncc(N2Cc3cn(Cc4ccc(F)cc4)nc3C2)n1 | HEK293 expressing GluA1 and GluA2 | glutamate excitotoxic cell death, CellTox Green | together with: glutamate | IC50 | 0.25 µM |
| O=C(Nc1cc(-c2ccnc3[nH]ccc23)c(Cl)cn1)[C@H]1CCC[C@@H](NC(=O)C(F)(F)F)C1 | JeKo-1 BTK knock-down, BTK inhibitor-resistant | cell viability | 72 h | IC50 | 0.11 µM |
| CN1CCN(C(=O)c2cncc(N3Cc4cnn(Cc5ccc(F)cc5)c4C3)n2)CC1 | HEK293 expressing GluA1 and GluA2 | glutamate excitotoxic cell death, CellTox Green | together with: glutamate | IC50 | 0.351 µM |
| NC(=O)c1ccc(-c2ccccc2Cl)c2c3c([nH]c12)CC[C@H](N)C3 | SGC-7901 | cell growth or viability | – | IC50 | 0.033 µM |
| O=C(c1ccnc(N2Cc3cn(Cc4ccc(F)cc4)nc3C2)n1)N1CCOCC1 | HEK293 expressing GluA1 and GluA2 | glutamate excitotoxic cell death, CellTox Green | together with: glutamate | IC50 | 0.044 µM |
| Cc1cnc(Nc2ccc3c(c2)CCN(C(=O)/C=C/C(=O)C2CCC(C)CC2)C3)nc1-c1cnn(C(C)C)c1 (stereo not shown) | HCC70 | cell growth or viability, MTT | 48 h | IC50 | 0.94 µM |

A few entries again:
| SMILES | target or system | test | setting | endpoint | result |
| --- | --- | --- | --- | --- | --- |
| CN(C(=O)c1cncc(N2Cc3cnn(Cc4ccc(F)cc4)c3C2)n1)C1CCCC1 | HEK293 expressing GluA1 and GluA2 | glutamate excitotoxic cell death, CellTox Green | together with: glutamate | IC50 | 0.054 µM |
| O=C(O)c1ccc(Nc2c(-c3ccccc3)nc3ccc(CON=CC4C(=O)Oc5ccc(Cl)cc5C4=O)cn23)cc1 (stereo not shown) | TDP1 | enzyme activity, inhibitor | 100 µM, unpurified compound | inhibition | 18.4% |
| CCN(C(=O)c1cc(F)ccc1Oc1nncnc1N1CCC2(C1)CN(C(CCCN(C)CCOC)C(C)C)C2)C(C)C (stereo not shown) | MOLM-14 (KMT2A-AF9, FLT3-ITD) | mRNA level, QuantiGene multiplex, measured: PBX3 | concentration not given | IC50 | > 3 µM |
| CC(CCC(=O)OCc1cccc(CN(C(=O)OCc2ccc(B3OC(C)(C)C(C)(C)O3)cc2)[c-]2cccc2)c1)C1CCC2C3CCC4CC(O)CCC4(C)C3CCC12C.[Fe+2].c1cc[cH-]c1 (stereo not shown) | BL2 | cell growth or viability, MTT | 48 h | IC50 | 31 µM |
| CCOC(=O)N1CCN(c2ccccc2C=NOCc2ccc3nc(-c4ccccc4)c(Nc4ccc(C(=O)O)cc4)n3c2)CC1 | TDP1 | enzyme activity, inhibitor | 100 µM, unpurified compound | inhibition | 49% |
| CN(C(=O)c1ccnc(N2Cc3cn(Cc4ccc(F)cc4)nc3C2)n1)C1CCCC1 | HEK293 expressing GluA1 and GluA2 | glutamate excitotoxic cell death, CellTox Green | together with: glutamate | IC50 | 0.054 µM |
